# Experimental data collected from several papers.
# Each numbered part is a random draw from the data of one study; scales do not carry over between parts.
# UniProt Q9Y616, sequence (whole entry, looked up): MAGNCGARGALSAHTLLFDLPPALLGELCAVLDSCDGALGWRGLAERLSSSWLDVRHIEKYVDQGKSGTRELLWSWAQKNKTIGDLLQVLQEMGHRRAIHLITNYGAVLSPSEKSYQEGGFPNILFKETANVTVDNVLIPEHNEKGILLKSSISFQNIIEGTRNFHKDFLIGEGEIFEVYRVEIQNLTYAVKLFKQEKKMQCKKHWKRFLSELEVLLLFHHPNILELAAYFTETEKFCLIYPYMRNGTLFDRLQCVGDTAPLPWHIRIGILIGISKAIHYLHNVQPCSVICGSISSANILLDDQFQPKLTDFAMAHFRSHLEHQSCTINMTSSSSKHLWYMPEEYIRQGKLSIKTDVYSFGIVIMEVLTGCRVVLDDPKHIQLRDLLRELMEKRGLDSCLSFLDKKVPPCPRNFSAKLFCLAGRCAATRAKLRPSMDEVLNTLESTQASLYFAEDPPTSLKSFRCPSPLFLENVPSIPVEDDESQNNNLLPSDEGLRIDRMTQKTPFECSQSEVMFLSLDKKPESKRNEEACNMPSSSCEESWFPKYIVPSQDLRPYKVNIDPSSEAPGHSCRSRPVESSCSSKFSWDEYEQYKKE
# UniProt Q13164, sequence (whole entry, looked up): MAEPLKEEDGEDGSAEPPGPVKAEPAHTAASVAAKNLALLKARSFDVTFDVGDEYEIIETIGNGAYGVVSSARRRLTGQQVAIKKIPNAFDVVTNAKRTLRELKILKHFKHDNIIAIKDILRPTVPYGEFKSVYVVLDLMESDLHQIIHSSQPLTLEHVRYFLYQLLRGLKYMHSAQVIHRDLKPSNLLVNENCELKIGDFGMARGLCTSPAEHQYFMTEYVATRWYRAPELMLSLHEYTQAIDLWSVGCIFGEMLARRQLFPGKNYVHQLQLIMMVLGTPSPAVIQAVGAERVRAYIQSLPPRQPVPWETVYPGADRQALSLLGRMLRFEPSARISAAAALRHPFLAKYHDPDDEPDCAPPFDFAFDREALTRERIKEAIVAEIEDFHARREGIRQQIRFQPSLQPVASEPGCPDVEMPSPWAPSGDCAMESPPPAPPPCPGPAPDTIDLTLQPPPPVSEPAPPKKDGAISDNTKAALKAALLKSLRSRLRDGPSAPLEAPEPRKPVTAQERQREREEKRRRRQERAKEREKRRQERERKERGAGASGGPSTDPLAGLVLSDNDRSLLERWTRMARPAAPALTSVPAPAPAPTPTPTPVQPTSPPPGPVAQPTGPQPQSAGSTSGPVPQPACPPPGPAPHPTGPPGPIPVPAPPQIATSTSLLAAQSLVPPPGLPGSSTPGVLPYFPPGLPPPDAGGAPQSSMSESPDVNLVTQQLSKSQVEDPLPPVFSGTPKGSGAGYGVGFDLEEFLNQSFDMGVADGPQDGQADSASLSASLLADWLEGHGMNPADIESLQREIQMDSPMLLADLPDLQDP
# UniProt Q13304, sequence (whole entry, looked up): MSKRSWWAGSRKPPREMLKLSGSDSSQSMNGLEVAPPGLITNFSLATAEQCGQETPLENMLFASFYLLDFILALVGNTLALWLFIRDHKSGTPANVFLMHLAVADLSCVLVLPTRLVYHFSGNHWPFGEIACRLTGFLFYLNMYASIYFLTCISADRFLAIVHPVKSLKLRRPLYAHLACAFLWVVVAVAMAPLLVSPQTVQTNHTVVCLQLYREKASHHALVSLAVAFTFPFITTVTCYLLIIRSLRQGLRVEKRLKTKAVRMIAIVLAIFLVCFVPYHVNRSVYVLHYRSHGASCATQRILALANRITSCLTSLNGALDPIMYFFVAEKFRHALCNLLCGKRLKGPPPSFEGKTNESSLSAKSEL
# UniProt O15354, sequence (whole entry, looked up): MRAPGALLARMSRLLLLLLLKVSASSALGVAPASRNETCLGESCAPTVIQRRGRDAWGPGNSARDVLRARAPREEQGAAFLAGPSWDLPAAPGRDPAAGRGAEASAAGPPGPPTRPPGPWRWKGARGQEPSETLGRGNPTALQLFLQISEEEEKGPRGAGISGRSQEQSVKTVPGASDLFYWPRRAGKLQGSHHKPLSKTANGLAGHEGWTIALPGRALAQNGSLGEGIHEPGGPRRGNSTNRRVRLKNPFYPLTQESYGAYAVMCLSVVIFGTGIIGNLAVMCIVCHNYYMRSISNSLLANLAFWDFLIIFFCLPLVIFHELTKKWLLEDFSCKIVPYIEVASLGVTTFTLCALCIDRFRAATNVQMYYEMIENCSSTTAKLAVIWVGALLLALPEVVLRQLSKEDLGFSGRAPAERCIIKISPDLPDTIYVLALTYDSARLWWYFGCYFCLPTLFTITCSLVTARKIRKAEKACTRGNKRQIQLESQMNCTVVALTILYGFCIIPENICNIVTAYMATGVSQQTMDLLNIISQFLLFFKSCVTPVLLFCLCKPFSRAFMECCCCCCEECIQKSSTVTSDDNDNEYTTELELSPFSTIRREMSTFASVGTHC
# UniProt P57078, sequence (whole entry, looked up): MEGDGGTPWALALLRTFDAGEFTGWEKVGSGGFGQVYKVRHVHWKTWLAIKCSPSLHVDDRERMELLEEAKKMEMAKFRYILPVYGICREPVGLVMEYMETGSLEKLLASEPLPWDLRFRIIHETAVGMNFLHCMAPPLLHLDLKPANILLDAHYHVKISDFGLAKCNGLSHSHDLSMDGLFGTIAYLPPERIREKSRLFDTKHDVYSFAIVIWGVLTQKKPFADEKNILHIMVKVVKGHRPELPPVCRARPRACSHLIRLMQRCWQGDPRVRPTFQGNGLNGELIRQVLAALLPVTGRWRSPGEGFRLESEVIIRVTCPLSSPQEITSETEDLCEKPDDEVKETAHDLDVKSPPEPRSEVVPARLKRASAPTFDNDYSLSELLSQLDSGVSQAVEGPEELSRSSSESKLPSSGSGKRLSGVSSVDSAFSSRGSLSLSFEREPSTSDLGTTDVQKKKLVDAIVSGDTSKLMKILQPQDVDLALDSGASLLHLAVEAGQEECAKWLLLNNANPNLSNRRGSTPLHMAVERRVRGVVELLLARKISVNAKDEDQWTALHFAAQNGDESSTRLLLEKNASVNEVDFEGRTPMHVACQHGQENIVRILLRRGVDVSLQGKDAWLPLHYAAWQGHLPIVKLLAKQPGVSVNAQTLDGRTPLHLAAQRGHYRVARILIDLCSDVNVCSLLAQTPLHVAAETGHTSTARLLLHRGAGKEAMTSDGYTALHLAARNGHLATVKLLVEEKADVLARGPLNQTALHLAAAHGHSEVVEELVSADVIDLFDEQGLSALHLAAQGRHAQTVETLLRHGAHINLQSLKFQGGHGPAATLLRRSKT
# UniProt Q13464, sequence (whole entry, looked up): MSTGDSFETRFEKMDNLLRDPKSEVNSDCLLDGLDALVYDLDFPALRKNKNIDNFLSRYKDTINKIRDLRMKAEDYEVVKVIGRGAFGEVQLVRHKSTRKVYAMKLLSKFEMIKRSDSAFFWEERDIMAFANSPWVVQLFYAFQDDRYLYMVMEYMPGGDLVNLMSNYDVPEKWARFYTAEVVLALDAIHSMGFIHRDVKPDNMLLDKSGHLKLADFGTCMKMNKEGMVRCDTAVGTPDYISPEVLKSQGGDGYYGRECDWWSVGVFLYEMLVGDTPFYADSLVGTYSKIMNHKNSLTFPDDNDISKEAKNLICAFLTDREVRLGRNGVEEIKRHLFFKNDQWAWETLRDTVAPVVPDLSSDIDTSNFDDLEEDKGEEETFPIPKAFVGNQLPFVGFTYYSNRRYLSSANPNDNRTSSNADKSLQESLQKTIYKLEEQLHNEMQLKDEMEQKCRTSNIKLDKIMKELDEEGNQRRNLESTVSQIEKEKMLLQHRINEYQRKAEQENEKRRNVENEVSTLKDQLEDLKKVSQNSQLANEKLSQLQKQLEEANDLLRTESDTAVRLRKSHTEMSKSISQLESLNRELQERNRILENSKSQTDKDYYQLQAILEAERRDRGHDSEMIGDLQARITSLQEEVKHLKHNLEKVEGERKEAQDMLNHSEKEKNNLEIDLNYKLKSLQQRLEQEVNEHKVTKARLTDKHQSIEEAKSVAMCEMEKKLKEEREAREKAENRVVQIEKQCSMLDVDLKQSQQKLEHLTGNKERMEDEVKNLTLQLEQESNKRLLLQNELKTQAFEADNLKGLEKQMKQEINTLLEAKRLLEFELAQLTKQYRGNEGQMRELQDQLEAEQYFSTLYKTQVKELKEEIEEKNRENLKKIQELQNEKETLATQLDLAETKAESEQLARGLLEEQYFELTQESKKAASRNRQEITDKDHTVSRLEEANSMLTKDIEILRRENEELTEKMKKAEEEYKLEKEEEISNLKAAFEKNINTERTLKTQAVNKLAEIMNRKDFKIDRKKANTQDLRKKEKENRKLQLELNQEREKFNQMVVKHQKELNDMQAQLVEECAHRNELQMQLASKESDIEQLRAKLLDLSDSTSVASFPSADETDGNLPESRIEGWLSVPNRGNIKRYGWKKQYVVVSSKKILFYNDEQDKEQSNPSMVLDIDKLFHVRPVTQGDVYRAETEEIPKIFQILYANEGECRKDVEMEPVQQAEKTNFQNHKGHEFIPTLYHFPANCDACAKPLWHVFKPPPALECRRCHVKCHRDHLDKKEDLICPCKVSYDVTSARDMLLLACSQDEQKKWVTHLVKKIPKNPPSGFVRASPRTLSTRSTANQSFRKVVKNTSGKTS
# UniProt O00141, sequence (whole entry, looked up): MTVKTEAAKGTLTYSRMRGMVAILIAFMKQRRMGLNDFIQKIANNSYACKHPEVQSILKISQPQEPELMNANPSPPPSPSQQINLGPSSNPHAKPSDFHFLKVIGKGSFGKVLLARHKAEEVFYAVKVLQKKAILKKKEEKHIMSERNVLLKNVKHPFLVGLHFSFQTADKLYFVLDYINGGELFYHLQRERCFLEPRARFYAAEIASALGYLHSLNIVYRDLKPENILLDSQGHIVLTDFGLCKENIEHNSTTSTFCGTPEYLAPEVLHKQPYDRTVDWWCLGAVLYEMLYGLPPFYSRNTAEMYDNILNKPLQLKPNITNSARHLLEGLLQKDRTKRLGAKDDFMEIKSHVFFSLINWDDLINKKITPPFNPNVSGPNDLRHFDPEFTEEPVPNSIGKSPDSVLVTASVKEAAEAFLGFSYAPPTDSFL

# Set 1 — organism: Sarcocystis neurona; observed: parasite growth; tested at: 10 µM
Compound,inhibition [%]
C[C@@H]1C[C@H]2[C@@H]3C[C@H](F)C4=CC(=O)C(Cl)=C[C@]4(C)[C@@]3(F)[C@@H](O)C[C@]2(C)[C@@]1(O)C(=O)CO,7.6
O=C1CN(/N=C/c2ccc(-c3ccc([N+](=O)[O-])cc3)o2)C(O)=N1,66.2
COc1ccc2c3c1O[C@H]1C[C@@H](O)C=C[C@@]31CCN(C)C2,-22.2
CN(C)[C@@H]1C(O)=C(C(N)=O)C(=O)[C@@]2(O)C(O)=C3C(=O)c4c(O)ccc(Cl)c4[C@@H](O)[C@H]3C[C@@H]12,15.9
CO[C@H]1/C=C/O[C@@]2(C)Oc3c(C)c(O)c4c(O)c(c(/C=N/N5CCN(C6CCCC6)CC5)c(O)c4c3C2=O)NC(=O)/C(C)=C\C=C\[C@H](C)[C@H](O)[C@@H](C)[C@@H](O)[C@@H](C)[C@H](OC(C)=O)[C@@H]1C,-23.9
O=C(O)c1cc(=O)c2c(OCC(O)COc3cccc4oc(C(=O)O)cc(=O)c34)cccc2o1,-29.1
O=C(O[C@H]1[C@H](Oc2ccccc2COC(=O)C2(O)C=CCCC2=O)O[C@H](CO)[C@@H](O)[C@@H]1O)c1ccccc1 (stereo partly shown),-27.2
COc1cc(C[C@@H](CO)[C@H](CO)Cc2ccc(O)c(OC)c2)ccc1O,-23.6
CC(C)(C)NCC(O)c1cc(O)cc(O)c1 (stereo not shown),-42.8

# Set 2 — host: mouse; sample: microsomes or S9; tested at: 2 µM; time: 0.5 h
Compound,remaining compound [%]
CC(CC(=O)c1ccccc1)n1nnc(-c2ccccc2)n1 (stereo not shown),5.6
Oc1cccc(-c2ncc(-c3ccccc3O)o2)c1,0.0979
O=C(Cn1cnc2ccccc2c1=O)NCCn1ccc2cc(Br)ccc21,0.61
COc1ccc(C2c3cccn3-c3sc4c(c3CN2C(=O)NCc2ccc(F)cc2)CCCC4)cc1 (stereo not shown),< 1
CCCn1cnc2cc(-c3noc(-c4ccc(Br)o4)n3)ccc21,21.9
COc1cc(=O)n2c(c1C(=O)Nc1ccc(C(F)(F)F)cc1)CCCC2,69.7
CN(C)C1CCN(c2ncnn3c(Br)ccc23)CC1,33.4
Cc1nc2[nH]c(CCCCOCc3ccccc3)nc2cc1Br,3.64
CCCn1c(=O)c2ccc(C(=O)NC3CCCC3)cc2n2c(=O)n(Cc3ccc(C)cc3)nc12,23.9

# Set 3 — Compound: NC(N)=NC(=O)c1nc(Cl)c(N2CCCCCC2)nc1N; observed: β-arrestin recruitment; mode: agonist; method: PRESTO-Tango; tested at: 10 µM; relative to: untreated
target,fold over basal
"GPR17 (Homo sapiens, UniProt Q13304)",0.69
"ADGRG1 (Homo sapiens, UniProt Q9Y653)",0.78
"GPR37 (Homo sapiens, UniProt O15354)",1.12
"G-protein coupled receptor family C group 5 member D (GPRC5D, Homo sapiens, UniProt Q9NZD1)",0.3
"MC2R (Homo sapiens, UniProt Q01718)",1.22

# Set 4 — observed: cell-free assay; method: competition with immobilised ligand; tested at: 1 µM
# SMILES: CCCOc1ccc([C@@H]2[C@@H](C(=O)O)[C@H](c3ccc4c(c3)OCO4)CN2CC(=O)Nc2c(CC)cccc2CC)cc1
target,remaining binding
"Tyrosine-protein kinase ABL1, non-phosphorylated (ABL1, Homo sapiens, UniProt P00519)",88%
"IRAK3 (Homo sapiens, UniProt Q9Y616)",100%
"NEK2 (Homo sapiens, UniProt P51955)",97%
"Macrophage colony-stimulating factor 1 receptor, autoinhibited (CSF1R, Homo sapiens, UniProt P07333)",90%
"DCLK2 (Homo sapiens, UniProt Q8N568)",85%
"Aurora kinase B (AURKB, Homo sapiens, UniProt Q96GD4)",77%
"MAPK7 (Homo sapiens, UniProt Q13164)",93%
"ROCK1 (Homo sapiens, UniProt Q13464)",81%
"SGK1 (Homo sapiens, UniProt O00141)",75%
"MAPK13 (Homo sapiens, UniProt O15264)",100%
"RIPK4 (Homo sapiens, UniProt P57078)",100%

# Excerpt of the above (set 4):
target,remaining binding
"Macrophage colony-stimulating factor 1 receptor, autoinhibited (CSF1R, Homo sapiens, UniProt P07333)",90%
"DCLK2 (Homo sapiens, UniProt Q8N568)",85%
"Aurora kinase B (AURKB, Homo sapiens, UniProt Q96GD4)",77%
"MAPK7 (Homo sapiens, UniProt Q13164)",93%
